Results of several laboratories.
Each numbered part is a random draw from the data of one study; scales do not carry over between parts. Changes are numbered by the printed parent chain.

Block 1
Target: Cyclic AMP-dependent transcription factor ATF-1, full length (ATF1, Homo sapiens, UniProt P18846, residues 1-271)
Technique: protein-binding microarray
Form: hairpin DNA
Matrix: in vitro
Tested at: not given
Notes: whole hairpin DNA, median over replicate spots
Baseline: not given
Reading: higher = stronger binding
Shared flanks, not repeated: GAGGCCG … CGGCCTCACACTC
Target sequence (chain): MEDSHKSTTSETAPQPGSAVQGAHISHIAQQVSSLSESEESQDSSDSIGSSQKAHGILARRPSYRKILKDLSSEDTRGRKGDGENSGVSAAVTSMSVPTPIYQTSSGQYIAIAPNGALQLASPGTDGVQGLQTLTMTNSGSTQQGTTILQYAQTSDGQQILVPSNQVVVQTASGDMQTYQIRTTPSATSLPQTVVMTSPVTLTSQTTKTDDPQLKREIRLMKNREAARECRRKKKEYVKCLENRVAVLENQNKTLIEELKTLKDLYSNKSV
Oligonucleotide | median fluorescence [a.u.]
GCTGCCGTCAGCCTCCTGGCTGACGGCAGC | 3680
CATGACGTCAGCCTCCTGGCTGACGTCATG (5mC at 8) | 13300
GATGGCGTCAGCCTCCTGGCTGACGCCATC | 4150
GATGACGTGAGCCTCCTGGCTCACGTCATC (5mC at 29) | 8870
ACTGACGTCAGCCTCCTGGCTGACGTCAGT | 8840
ACGACCGCGTGCCTCCTGGCACGCGGTCGT (5mC at 9 15 29 35) | 3720
ACGACGTCCGGCCTCCTGGCCGGACGTCGT (5mC at 9 15 16 35) | 3320
GCTGACCGCAGCCTCCTGGCTGCGGTCAGC (5mC at 14 30) | 3410

Block 2
Target: ATP-dependent RNA helicase DDX3X, helicase core (DDX3X, Homo sapiens, UniProt O00571, residues 132-607)
Chain of UniProt O00571 (132-607, looked up): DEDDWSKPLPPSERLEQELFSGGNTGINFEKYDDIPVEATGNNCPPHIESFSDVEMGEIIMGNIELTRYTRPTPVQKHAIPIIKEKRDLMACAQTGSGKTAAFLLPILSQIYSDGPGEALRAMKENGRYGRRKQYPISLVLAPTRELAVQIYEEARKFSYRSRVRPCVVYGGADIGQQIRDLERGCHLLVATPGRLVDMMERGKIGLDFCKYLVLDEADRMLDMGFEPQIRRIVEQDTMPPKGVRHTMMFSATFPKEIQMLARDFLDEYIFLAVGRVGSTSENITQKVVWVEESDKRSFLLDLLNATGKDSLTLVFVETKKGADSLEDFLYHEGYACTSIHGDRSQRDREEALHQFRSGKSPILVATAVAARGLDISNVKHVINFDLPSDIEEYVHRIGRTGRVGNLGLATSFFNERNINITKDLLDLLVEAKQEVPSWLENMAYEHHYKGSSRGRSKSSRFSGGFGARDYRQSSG
Technique: RNA Bind-n-Seq
Form: RNA
Matrix: in vitro
Tested at: 90 pmol
Notes: 4-mer, random 30-nt RNA, single round
Together with: 3 µM DMDA-PatA, 2 mM ADP, 2 mM phosphate
Baseline: input library
Reading: higher = stronger binding
Oligonucleotide | 4-mer enrichment [fold]
CUGA | 0.812
GUAG | 1.09
UUCG | 0.895
GUAC | 0.889
CUAG | 0.828
GGCG | 1.18
UACC | 0.917
UGCA | 0.92

Block 3
Target: UBE2D4 UBC core domain (UniProt Q9Y2X8)
Chain of UniProt Q9Y2X8 (whole entry, looked up): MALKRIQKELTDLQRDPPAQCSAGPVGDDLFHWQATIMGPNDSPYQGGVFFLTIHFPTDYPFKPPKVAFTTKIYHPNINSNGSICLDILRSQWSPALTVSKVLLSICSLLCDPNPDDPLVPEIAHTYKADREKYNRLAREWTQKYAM
Technique: yeast two-hybrid
Matrix: yeast
Notes: mostly zero background
Baseline: not given
Reading: higher = stronger interaction
B1: MAP3K1 RING domain (UniProt Q13233); chain NSIKDEEEQMCPICLLGMLDEESLTVCEDGCRNKLHHHCMSIWAEECRRNREPLICPLCRSKWRSHDFYS
B2: RBCK1 RING domain (UniProt Q9BYM8); chain SLVLNTEPAECPVCYSVLAPGEAVVLRECLHTFCRECLQGTIRNSQEAEVSCPFIDNTYSCSGKLLEREIK
B3: RFWD3 RING domain (UniProt Q6PCD5); chain ASMDEEEGDTCTICLEQWTNAGDHRLSALRCGHLFGYRCISTWLKGQVRKCPQCNKKARHSDIVV
B4: RNF19A RING domain (UniProt Q9NV58); chain ISKQIGDFIECPLCLLRHSKDRFPDIMTCHHRSCVDCLRQYLRIEISESRVNISCPECTERFNPHDIR
B5: DZIP3 RING domain (UniProt Q86Y13); chain PDEEEEEEEPCVICHENLSPENLSVLPCAHKFHAQCIRPWLMQQGTCPTCRLHVLLPEEFP
B6: UBOX5 RING domain (UniProt O94941); chain EQPGSILGPECASCKRVFSPYFKKEPVYQLPCGHLLCRPCLGEKQRSLPMTCTACQRPVASQDVLR
Molecule | lacZ reporter activity
B1 (MAP3K1 RING domain) | 14600
B2 (RBCK1 RING domain) | 0
GSDDEEIPFKCFICRQSFQNPVVTKCRHYFCESCALQHFRTTPRCYVCDQQTNGVFNPA (RNF113A RING domain (UniProt O15541)) | 0
B3 (RFWD3 RING domain) | 10300
B4 (RNF19A RING domain) | 0
PEDRESLKSACVVCLSSFKSCVFLECGHVCSCTECYRALPEPKKCPICRQAITRVIPLY (MUL1 RING domain (UniProt Q969V5)) | 13100
B5 (DZIP3 RING domain) | 0
B6 (UBOX5 RING domain) | 0

Block 4
Target: CCNE2, cyclin fold, Cln2 fusion (human)
Technique: yeast growth competition, sequencing
Matrix: yeast
Notes: strong parent motif
Baseline: not given
Reading: higher = stronger binding
Parent: viral docking peptide; KGVKRKLFAEDSS; partner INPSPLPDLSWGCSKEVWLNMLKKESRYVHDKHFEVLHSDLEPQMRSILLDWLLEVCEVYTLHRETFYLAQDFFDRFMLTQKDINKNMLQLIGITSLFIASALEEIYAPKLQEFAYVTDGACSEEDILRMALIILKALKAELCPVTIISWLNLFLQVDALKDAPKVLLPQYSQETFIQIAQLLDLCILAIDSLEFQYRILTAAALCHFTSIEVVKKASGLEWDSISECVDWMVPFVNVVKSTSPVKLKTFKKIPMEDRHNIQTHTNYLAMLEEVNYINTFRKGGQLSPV
Change | normalised enrichment score
KGVKKKLLAEDSS [R5K F8L] | 0.469
KGAKRKLFAEDSS [V3A] | 5.56
KGVKRELFAEDSS [K6E] | 2.95
KGVKRDLFAEDSS [K6D] | 0.548
KGEKRKLFAEDSS [V3E] | 0.807
KGVKRKRFAEDSS [L7R] | 0.566
KGVKRKLFAEHSS [D11H] | 6.12
KGVIRKLFAEDSS [K4I] | 5.89
KGVKRKLNAEDSS [F8N] | 0.0922
KGVERKLFAEDSS [K4E] | 0.871
KGVKRKLHAEDSS [F8H] | 0.0684
KEVKRKLFAEDSS [G2E] | 5.73
KGVKRKLFPEDSS [A9P] | 6.1
KGVKRKLFAADSS [E10A] | 5.66
KGVKRKLFAERSS [D11R] | 4.78
KGVKLKLFAEDSS [R5L] | 0.214
KGVKIKLFAEDSS [R5I] | 0.73
KGVKRYLFAEDSS [K6Y] | 1.34
KGVKRKLFAEASS [D11A] | 6.3
KGVKAKLFAEDSS [R5A] | 0.865
KGVKRKLFAEDMS [S12M] | 6.56
KGVKRKLFAQDSS [E10Q] | 5.61
KGVKRVLFAEDSS [K6V] | 6.19
KGVKRKLSAEDSS [F8S] | -0.118
KGVKRNLFAEDSS [K6N] | 3.02

Mixed results
Structure (SMILES) | technique | refers to | species | dose | notes | quantity | result
CC(C)n1cnc(-c2ccc(F)cc2)c1-c1ncc(C(=O)Nc2ccc(N3CCN(C)CC3)cc2)[nH]1 | Phase 2a trial | influenza like illness | idiopathic pulmonary fibrosis patients | 60 mg once daily | grade 1 maximum intensity | patients with adverse events | 0%

For quick reference, copied from above (block 1):
Oligonucleotide | median fluorescence [a.u.]
GCTGACCGCAGCCTCCTGGCTGCGGTCAGC (5mC at 14 30) | 3410
GATGGCGTCAGCCTCCTGGCTGACGCCATC | 4150
GATGACGTGAGCCTCCTGGCTCACGTCATC (5mC at 29) | 8870
GCTGCCGTCAGCCTCCTGGCTGACGGCAGC | 3680
